# Results pooled from the literature.
# Every numbered part comes from another study and shows a few of its results, in no order.
# Sequence of UniProt P15056 (whole entry, unmodified, looked up): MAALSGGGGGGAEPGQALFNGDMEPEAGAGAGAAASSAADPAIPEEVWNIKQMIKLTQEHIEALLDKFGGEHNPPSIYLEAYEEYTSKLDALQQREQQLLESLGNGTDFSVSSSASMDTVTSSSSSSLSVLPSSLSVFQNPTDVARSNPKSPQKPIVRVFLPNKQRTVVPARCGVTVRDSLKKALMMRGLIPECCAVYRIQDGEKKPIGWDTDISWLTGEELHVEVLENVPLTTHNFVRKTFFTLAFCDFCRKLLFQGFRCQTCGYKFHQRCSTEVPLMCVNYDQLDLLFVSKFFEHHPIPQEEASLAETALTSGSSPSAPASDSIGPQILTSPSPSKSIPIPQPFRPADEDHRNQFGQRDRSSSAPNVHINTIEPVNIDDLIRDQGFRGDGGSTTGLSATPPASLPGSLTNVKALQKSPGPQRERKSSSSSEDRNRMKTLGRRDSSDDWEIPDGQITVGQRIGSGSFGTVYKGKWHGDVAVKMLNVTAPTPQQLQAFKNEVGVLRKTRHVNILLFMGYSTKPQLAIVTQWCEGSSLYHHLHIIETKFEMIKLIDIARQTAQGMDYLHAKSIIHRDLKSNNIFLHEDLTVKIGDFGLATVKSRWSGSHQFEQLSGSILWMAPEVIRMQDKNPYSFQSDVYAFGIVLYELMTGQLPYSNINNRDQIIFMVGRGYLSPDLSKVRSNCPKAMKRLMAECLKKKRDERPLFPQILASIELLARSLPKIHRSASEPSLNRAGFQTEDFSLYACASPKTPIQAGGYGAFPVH
# Sequence of UniProt Q9H4B4 (whole entry, looked up): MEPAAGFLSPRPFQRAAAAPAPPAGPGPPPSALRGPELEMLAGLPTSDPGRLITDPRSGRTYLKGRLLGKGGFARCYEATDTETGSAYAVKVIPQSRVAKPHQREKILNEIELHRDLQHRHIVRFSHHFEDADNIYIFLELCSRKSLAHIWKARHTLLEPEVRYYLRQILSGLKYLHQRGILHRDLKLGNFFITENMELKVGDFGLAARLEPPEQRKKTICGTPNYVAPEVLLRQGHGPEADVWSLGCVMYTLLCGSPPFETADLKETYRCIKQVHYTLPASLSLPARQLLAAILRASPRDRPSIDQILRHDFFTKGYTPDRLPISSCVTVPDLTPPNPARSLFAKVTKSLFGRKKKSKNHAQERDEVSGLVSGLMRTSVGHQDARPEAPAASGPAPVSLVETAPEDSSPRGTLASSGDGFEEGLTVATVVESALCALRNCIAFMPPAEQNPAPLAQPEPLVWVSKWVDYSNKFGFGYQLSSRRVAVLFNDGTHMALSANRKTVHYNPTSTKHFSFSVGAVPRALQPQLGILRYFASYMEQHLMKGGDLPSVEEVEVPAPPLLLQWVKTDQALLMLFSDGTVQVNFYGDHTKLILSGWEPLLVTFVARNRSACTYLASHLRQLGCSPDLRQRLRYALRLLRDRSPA
# Sequence of UniProt Q15349 (whole entry, looked up): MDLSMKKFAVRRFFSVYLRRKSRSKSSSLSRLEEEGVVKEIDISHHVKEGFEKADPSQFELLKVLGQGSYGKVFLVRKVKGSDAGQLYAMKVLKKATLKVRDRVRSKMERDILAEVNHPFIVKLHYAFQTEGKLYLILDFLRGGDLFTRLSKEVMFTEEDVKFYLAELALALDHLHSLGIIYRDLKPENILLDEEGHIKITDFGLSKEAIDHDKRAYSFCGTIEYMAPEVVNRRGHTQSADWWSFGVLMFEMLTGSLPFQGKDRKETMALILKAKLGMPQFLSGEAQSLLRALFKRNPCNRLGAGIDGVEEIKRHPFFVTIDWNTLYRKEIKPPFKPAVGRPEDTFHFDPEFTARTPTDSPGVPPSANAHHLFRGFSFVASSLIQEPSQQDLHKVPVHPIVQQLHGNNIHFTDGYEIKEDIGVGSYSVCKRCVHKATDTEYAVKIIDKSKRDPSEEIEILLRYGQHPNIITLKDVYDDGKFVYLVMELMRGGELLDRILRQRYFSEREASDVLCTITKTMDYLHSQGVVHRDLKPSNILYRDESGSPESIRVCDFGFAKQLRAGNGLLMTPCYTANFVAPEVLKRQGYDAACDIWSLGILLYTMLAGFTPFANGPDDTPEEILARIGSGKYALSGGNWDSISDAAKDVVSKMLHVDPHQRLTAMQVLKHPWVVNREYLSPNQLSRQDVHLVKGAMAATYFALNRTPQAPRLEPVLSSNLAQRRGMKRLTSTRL
# Sequence of UniProt P35916 (whole entry, looked up): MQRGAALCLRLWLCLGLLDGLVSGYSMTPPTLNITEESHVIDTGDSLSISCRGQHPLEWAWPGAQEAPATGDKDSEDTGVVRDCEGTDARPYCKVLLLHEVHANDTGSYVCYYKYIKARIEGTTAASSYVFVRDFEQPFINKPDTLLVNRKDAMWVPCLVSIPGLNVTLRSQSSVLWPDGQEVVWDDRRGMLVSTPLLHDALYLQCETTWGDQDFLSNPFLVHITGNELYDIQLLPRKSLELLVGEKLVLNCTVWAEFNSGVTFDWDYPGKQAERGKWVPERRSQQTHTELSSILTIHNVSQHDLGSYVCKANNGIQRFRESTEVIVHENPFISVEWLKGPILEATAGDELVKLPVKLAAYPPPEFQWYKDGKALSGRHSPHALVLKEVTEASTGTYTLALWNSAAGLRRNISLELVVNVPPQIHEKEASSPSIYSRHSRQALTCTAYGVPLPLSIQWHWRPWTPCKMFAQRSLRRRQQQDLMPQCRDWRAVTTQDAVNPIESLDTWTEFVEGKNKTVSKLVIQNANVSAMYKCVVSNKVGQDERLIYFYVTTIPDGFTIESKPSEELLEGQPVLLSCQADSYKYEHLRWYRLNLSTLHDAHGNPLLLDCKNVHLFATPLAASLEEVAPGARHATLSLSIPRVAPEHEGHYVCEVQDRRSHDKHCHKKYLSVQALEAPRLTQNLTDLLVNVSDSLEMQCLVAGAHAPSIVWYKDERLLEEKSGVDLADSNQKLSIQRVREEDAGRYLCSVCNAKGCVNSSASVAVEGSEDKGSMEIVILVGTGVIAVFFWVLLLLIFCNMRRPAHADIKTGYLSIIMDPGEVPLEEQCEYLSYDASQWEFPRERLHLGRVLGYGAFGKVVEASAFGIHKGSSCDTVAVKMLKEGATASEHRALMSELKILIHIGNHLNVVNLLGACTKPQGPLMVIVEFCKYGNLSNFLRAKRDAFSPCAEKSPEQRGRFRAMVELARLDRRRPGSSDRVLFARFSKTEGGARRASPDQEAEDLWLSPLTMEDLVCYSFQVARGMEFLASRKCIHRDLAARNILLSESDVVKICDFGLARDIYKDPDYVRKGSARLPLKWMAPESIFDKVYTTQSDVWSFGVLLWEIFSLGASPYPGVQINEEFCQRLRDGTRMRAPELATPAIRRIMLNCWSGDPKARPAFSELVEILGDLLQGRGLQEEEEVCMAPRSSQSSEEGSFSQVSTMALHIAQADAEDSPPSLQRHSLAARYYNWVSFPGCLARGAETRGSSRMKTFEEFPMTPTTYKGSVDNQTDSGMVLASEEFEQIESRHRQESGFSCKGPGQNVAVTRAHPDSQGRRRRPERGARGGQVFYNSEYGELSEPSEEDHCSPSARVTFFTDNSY
# Sequence of UniProt Q04912 (whole entry, looked up): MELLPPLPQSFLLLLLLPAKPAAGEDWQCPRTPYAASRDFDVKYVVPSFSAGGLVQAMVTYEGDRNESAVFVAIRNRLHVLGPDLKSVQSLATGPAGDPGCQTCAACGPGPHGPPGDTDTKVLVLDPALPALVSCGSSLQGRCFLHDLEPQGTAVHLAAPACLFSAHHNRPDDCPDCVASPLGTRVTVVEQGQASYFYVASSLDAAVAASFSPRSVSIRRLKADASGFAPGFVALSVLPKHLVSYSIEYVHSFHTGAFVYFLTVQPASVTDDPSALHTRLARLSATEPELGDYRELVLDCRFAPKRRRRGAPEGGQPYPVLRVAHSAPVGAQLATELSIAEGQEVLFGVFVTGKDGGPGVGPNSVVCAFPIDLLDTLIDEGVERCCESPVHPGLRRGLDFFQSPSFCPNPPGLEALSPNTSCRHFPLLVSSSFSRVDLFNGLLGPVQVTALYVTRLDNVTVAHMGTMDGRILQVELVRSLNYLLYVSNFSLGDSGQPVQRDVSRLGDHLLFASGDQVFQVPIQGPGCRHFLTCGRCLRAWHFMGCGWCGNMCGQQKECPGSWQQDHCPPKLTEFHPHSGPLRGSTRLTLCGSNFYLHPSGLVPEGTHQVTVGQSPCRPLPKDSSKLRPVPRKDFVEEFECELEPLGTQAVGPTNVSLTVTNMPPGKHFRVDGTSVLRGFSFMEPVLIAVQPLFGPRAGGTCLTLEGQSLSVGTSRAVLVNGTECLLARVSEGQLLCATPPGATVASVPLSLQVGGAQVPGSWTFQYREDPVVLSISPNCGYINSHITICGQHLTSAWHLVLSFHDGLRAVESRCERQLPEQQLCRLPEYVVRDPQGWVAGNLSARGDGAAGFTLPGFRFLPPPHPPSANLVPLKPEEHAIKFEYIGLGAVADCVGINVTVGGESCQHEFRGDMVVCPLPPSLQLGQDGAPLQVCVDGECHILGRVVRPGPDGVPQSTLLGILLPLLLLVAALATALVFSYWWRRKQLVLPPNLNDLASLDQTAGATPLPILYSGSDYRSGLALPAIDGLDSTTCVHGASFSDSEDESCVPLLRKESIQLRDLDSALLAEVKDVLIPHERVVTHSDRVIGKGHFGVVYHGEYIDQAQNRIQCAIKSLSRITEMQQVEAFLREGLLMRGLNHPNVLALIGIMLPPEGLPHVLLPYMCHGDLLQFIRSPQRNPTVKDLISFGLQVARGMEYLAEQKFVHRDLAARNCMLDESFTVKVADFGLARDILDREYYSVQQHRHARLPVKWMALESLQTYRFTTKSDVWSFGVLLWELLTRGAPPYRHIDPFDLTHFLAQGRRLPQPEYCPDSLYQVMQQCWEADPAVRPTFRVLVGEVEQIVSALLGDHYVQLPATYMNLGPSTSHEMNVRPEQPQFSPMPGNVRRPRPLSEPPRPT

# Block 1
# Structure (SMILES): CNc1cc2c(Nc3cccc(Br)c3)ncnc2cn1
# Effect on: enzyme activity
# Mode: inhibitor
# Concentration: 0.5 µM
# Relative to: control
target,remaining activity
"Wee1-like protein kinase (WEE1, Homo sapiens, UniProt P30291)",75.9%
"Serine/threonine-protein kinase ULK3 (ULK3, Homo sapiens, UniProt Q6PHR2)",95.8%
"Mitogen-activated protein kinase kinase kinase 5 (MAP3K5, Homo sapiens, UniProt Q99683)",94.6%
"Casein kinase I isoform gamma-2 (CSNK1G2, Homo sapiens, UniProt P78368)",95.8%
"Glycogen synthase kinase-3 beta (GSK3B, Homo sapiens, UniProt P49841)",89.6%
"Tyrosine-protein kinase JAK3 (JAK3, Homo sapiens, UniProt P52333)",103%
"Serine/threonine-protein kinase TBK1 (TBK1, Homo sapiens, UniProt Q9UHD2)",94.5%
"Ephrin type-A receptor 3 (EPHA3, Homo sapiens, UniProt P29320)",96.1%
"Ribosomal protein S6 kinase alpha-2 (RPS6KA2, Homo sapiens, UniProt Q15349)",83.5%
"Mitogen-activated protein kinase kinase kinase 14 (MAP3K14, Homo sapiens, UniProt Q99558)",126%
"Tyrosine-protein kinase FRK (FRK, Homo sapiens, UniProt P42685)",91.2%
"Macrophage-stimulating protein receptor (MST1R, Homo sapiens, UniProt Q04912)",73.9%
"Mitogen-activated protein kinase 3 (MAPK3, Homo sapiens, UniProt P27361)",97.3%

# Block 2
# Target: Hepatocyte nuclear factor 3-alpha (Foxa1, Mus musculus, UniProt P35582, residues 1-468, full length assumed)
# Technique: EMSA with sequencing
# Molecule type: double-stranded DNA, one strand shown
# Medium: in vitro
# Concentration: 10 and 20 nM
# Setting: whole designed probe, mean of two concentrations, ends assumed
# Relative to: negative control set to 0
# Direction: higher = stronger binding
# All sequences stand within: GTGAGCGGTGCCCATTGATGGGGAAC … TTTCACTGGGATCGTGGGGAC
# Construct (chain): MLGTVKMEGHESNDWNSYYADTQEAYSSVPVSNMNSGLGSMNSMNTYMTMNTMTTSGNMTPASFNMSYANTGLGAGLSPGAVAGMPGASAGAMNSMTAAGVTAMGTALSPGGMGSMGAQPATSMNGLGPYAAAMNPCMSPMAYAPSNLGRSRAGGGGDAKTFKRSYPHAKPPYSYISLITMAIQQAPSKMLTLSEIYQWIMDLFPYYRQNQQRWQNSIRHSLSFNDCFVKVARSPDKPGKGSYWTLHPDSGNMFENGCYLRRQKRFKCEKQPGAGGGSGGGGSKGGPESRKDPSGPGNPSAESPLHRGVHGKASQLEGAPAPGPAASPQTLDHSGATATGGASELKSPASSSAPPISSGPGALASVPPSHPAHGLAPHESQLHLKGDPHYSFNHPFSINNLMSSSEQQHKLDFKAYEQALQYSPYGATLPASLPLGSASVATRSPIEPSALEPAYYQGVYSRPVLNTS
Strand,normalised bound fraction [ratio]
ATCTTCCCCCTCTTCCTTGCCCCACCAGCTCACCTTCCCGGGTTATTTGCACAAAGGAAAATAAATAAAGCCGGCATTCGTTAACGCAGTTCTGGCGCAAACTGCTGTTTGCTCTGGATCTAACATGGTCCTTTGGCGAGGCGTGGCTCCGGGAGAGCAAAGCACCGTGTCAGGGCCATGATCCGGGCTCGCC,0.374
AGTCCAAAAGACACAATAGGCACTGAGCAGAGGATGATGGCAATGGTAGAATGAATCATGAGGTTCATAACCAGGAGACTTAAAGCAAAAAAAATAAACAACCAAACAGCAATGGGTGAAGAGTTCCCTGCAAAGGCTAATCTATAAATAAGCACTGTGATCTTTCCTGGTCTGATAACAAATCTCATTATGA,0.165
GACACCATTTCGAACAAAACAAAACAGTTGCTCCCTTCCCTCTTGTTCCTCCCACTATTGCTGTCATTGCAAGCTCCTAGGAGCTGCCCTGTTATTTACATTGCAGTGGGCAAGACTCTGGGAAGCAGCAGGCAGGGAGGAGGATGGGAAGCAAGAACCCAGCTGGGGCTAAGCAAGGTCCAGCTCATAATAT,0.415
ATCTTCCCCCTCTTCCTTGCCCCACCAGTTTGCCTTCCCGGGTTATTTGCAGATAGGAAAATAAATAAAGCCGGCATTCGTTAACCCTCTTCTGGCGCAAACTGCTGTTTGCTCTGGATGAATCATGGTCCTTTGGCGACGCCAGGCTCCGGGAGAGCAAAGCACCGTGTCAGGGCCATGATCCGGGGTGGCC,0.331
ATAAAGCTTTTCACCTGACGCAGGATAATAGCGAGTGCATGTGTGCTGGTTAGATTACTGTGAGTCTCTCAGAGGAAATCATGTGCATCTGTCAGATTACTTTTCCGTGGAACCTAGAAGGTCACCTCTAAAAATAATCTTGCTCGGTGTTAGAGTTTCTGTGACACAGAGGTACATACCTCACATGCTCTCC,-0.061

# Block 3
# Target: TAR DNA-binding protein 43, full length, His tag (TARDBP, Homo sapiens, UniProt Q13148, residues 1-414)
# Technique: RNA Bind-n-Seq
# Molecule type: RNA
# Medium: in vitro
# Concentration: 20 nM
# Setting: 6-mer, flanks averaged, single round
# Together with: 150 mM LiCl
# Relative to: input library
# Direction: higher = stronger binding
Strand,6-mer enrichment (R)
UAUCGC,0.86
ACGUGA,0.89
ACUGGC,0.893
AGGAAG,1
ACAGGC,0.876
GAGUCU,0.902
GGCGGC,1.12
GAACCU,0.875

# Block 4
# SMILES: COc1cccc(CNC(=O)c2nc3scc(COCc4ccc(C(=O)O)cc4)c3c(=O)[nH]2)c1
# Effect on: cell-free assay
# Technique: competition with immobilised ligand
# Concentration: 1 µM
target,remaining binding [%]
"Serine/threonine-protein kinase B-raf (BRAF, Homo sapiens, UniProt P15056, V600E)",79.8
"Mitogen-activated protein kinase 4 (MAPK4, Homo sapiens, UniProt P31152)",80
"Serine/threonine-protein kinase Chk1 (CHEK1, Homo sapiens, UniProt O14757)",95.5
"Serine/threonine-protein kinase PLK3 (PLK3, Homo sapiens, UniProt Q9H4B4)",65.3
"Vascular endothelial growth factor receptor 3 (FLT4, Homo sapiens, UniProt P35916)",100
"Tyrosine-protein kinase ABL1, non-phosphorylated (ABL1, Homo sapiens, UniProt P00519, T315I)",92

# For quick reference, copied from above (block 2):
Strand,normalised bound fraction [ratio]
GACACCATTTCGAACAAAACAAAACAGTTGCTCCCTTCCCTCTTGTTCCTCCCACTATTGCTGTCATTGCAAGCTCCTAGGAGCTGCCCTGTTATTTACATTGCAGTGGGCAAGACTCTGGGAAGCAGCAGGCAGGGAGGAGGATGGGAAGCAAGAACCCAGCTGGGGCTAAGCAAGGTCCAGCTCATAATAT,0.415
ATCTTCCCCCTCTTCCTTGCCCCACCAGTTTGCCTTCCCGGGTTATTTGCAGATAGGAAAATAAATAAAGCCGGCATTCGTTAACCCTCTTCTGGCGCAAACTGCTGTTTGCTCTGGATGAATCATGGTCCTTTGGCGACGCCAGGCTCCGGGAGAGCAAAGCACCGTGTCAGGGCCATGATCCGGGGTGGCC,0.331
AGTCCAAAAGACACAATAGGCACTGAGCAGAGGATGATGGCAATGGTAGAATGAATCATGAGGTTCATAACCAGGAGACTTAAAGCAAAAAAAATAAACAACCAAACAGCAATGGGTGAAGAGTTCCCTGCAAAGGCTAATCTATAAATAAGCACTGTGATCTTTCCTGGTCTGATAACAAATCTCATTATGA,0.165
ATCTTCCCCCTCTTCCTTGCCCCACCAGCTCACCTTCCCGGGTTATTTGCACAAAGGAAAATAAATAAAGCCGGCATTCGTTAACGCAGTTCTGGCGCAAACTGCTGTTTGCTCTGGATCTAACATGGTCCTTTGGCGAGGCGTGGCTCCGGGAGAGCAAAGCACCGTGTCAGGGCCATGATCCGGGCTCGCC,0.374
ATAAAGCTTTTCACCTGACGCAGGATAATAGCGAGTGCATGTGTGCTGGTTAGATTACTGTGAGTCTCTCAGAGGAAATCATGTGCATCTGTCAGATTACTTTTCCGTGGAACCTAGAAGGTCACCTCTAAAAATAATCTTGCTCGGTGTTAGAGTTTCTGTGACACAGAGGTACATACCTCACATGCTCTCC,-0.061
